# Measurements gathered from unrelated publications.
# Every numbered part comes from another study and shows a few of its results, in no order. Values joined by “and” are separate records of one study, mostly repeats; a detail may differ.
# UniProt P35916, sequence (whole entry, looked up): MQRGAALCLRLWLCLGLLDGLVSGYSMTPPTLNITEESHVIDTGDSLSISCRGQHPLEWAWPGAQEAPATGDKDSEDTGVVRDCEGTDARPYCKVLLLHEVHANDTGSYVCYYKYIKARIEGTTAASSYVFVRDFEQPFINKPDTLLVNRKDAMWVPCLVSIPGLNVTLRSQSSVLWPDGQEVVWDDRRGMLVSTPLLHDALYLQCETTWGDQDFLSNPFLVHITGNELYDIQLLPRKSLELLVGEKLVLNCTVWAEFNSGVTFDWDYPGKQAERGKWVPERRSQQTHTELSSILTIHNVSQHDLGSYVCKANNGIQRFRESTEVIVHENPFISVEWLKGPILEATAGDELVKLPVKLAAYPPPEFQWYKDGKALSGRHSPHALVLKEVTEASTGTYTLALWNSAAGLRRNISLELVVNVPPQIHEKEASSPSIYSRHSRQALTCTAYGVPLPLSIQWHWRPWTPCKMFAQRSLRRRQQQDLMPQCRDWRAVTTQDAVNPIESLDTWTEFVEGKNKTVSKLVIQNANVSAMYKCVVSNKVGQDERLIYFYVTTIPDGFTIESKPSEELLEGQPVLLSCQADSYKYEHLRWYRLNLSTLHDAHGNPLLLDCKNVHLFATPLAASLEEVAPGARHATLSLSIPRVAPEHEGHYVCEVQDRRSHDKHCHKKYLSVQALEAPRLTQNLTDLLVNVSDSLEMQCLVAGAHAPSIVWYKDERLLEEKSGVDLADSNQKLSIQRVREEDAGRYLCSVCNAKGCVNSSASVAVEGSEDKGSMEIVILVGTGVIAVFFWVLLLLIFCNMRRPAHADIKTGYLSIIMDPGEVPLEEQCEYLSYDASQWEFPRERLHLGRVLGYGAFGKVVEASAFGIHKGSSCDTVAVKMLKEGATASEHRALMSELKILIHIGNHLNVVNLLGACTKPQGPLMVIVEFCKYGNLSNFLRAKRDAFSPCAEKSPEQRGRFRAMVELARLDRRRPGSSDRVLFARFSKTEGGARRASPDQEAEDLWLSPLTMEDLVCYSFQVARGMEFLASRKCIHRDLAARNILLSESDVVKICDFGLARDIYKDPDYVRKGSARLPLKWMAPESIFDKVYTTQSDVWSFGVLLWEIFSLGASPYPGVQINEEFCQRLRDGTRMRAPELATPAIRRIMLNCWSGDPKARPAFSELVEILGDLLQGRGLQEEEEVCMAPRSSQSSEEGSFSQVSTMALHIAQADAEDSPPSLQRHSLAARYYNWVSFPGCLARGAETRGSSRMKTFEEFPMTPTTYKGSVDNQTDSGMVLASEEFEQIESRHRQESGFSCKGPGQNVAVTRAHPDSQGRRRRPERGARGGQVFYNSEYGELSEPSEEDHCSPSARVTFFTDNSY
# UniProt P42679, sequence (whole entry, looked up): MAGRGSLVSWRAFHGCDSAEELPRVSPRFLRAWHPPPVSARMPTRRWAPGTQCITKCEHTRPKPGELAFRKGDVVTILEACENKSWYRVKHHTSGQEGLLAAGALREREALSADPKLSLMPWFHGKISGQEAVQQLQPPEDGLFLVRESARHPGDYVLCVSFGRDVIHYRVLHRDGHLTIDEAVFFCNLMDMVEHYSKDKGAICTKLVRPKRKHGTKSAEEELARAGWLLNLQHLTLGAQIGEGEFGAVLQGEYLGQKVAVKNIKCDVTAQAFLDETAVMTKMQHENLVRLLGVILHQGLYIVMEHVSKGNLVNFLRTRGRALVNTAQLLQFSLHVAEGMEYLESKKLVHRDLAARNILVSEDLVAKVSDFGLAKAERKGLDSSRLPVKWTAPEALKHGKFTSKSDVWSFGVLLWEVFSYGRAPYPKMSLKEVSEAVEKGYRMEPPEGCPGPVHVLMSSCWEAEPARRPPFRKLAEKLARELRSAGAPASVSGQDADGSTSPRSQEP
# UniProt P42336, sequence (whole entry, unmodified, looked up): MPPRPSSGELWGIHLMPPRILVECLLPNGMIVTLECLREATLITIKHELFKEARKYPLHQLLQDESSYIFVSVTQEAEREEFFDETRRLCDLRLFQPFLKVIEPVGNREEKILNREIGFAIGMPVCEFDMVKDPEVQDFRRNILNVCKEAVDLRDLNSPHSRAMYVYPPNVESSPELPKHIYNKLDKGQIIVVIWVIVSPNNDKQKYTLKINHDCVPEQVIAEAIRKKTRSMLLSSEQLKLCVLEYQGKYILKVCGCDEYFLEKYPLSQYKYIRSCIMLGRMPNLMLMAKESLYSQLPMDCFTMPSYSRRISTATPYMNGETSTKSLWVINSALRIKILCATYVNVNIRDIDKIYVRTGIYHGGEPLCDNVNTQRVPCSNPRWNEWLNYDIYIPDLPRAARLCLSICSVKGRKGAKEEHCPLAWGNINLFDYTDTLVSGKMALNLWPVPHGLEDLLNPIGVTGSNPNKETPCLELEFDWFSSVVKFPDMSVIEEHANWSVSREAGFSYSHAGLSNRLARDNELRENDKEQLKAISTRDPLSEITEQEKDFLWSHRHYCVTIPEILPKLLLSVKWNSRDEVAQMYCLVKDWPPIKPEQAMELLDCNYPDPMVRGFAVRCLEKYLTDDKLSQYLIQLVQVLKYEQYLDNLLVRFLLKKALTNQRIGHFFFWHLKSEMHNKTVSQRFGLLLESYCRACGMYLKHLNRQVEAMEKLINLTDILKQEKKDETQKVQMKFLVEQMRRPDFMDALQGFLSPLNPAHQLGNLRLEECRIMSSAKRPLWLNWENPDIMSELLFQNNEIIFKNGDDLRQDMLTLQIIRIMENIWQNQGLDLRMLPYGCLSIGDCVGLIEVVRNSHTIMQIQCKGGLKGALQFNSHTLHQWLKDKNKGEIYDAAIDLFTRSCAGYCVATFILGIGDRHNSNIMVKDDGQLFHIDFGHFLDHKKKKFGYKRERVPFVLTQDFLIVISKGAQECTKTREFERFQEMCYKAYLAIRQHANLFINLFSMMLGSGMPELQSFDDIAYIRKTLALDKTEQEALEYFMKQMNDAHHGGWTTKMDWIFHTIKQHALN
# UniProt P25098, sequence (whole entry, looked up): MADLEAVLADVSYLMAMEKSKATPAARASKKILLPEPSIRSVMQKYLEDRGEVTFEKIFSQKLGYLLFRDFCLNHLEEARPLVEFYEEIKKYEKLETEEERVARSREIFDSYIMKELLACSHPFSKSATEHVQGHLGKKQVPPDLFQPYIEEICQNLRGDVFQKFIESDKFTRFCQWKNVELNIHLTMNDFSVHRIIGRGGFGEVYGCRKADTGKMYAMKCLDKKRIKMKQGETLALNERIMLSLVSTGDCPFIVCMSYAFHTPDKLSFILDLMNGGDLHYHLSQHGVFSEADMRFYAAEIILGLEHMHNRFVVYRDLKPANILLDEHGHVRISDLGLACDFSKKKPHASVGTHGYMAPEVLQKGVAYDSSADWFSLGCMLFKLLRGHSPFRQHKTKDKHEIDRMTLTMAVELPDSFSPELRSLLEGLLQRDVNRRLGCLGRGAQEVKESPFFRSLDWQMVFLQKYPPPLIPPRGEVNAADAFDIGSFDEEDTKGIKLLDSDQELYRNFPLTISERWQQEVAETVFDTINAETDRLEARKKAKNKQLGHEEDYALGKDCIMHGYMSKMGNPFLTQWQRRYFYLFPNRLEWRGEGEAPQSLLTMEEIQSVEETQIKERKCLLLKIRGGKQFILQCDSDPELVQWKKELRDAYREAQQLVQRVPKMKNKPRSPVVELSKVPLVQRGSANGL

# Block 1
# Organism: Sarcocystis neurona
# Effect on: parasite growth
# Tested at: 10 µM
# Setting: secondary screen
Compound,inhibition
Cl.NC1CCN(c2cccc(Cl)n2)CC1,-23%
CCC(C)(C)C(=O)O[C@H]1C[C@@H](C)C=C2C=C[C@H](C)[C@H](CC[C@@H]3C[C@@H](O)CC(=O)O3)[C@H]21,-46.5%
O=C(O)c1cc(=O)c2c(OCC(O)COc3cccc4oc(C(=O)O)cc(=O)c34)cccc2o1,-30.8%
C[C@]12CCC(=O)C=C1CC[C@@H]1[C@@H]2C(=O)C[C@@]2(C)[C@H]1CC[C@]2(O)C(=O)CO,3.6%
CC(N)C12CC3CC(CC(C3)C1)C2 (stereo not shown),-23.7%
O=c1[nH]cc(F)c(=O)[nH]1,59.5%
CCc1nc(N)nc(N)c1-c1ccc(Cl)cc1,65.7%

# Block 2
# SMILES: CN([C@@H]1CCc2c(CC(=O)O)c3cc(S(C)(=O)=O)ccc3n2C1)S(=O)(=O)c1ccc(F)cc1
# Effect on: cell-free assay
# Method: competition with immobilised ligand
# Tested at: 1 µM
target,remaining binding
"ALK tyrosine kinase receptor (ALK, Homo sapiens, UniProt Q9UM73)",80%
"Megakaryocyte-associated tyrosine-protein kinase (MATK, Homo sapiens, UniProt P42679)",100%
"cAMP-dependent protein kinase catalytic subunit alpha (PRKACA, Homo sapiens, UniProt P17612)",100%
"Vascular endothelial growth factor receptor 3 (FLT4, Homo sapiens, UniProt P35916)",100%
"Ephrin type-B receptor 6 (EPHB6, Homo sapiens, UniProt O15197)",82%
"Beta-adrenergic receptor kinase 1 (GRK2, Homo sapiens, UniProt P25098)",84%
"Serine/threonine-protein kinase 24 (STK24, Homo sapiens, UniProt Q9Y6E0)",100%
"Tyrosine-protein kinase SYK (SYK, Homo sapiens, UniProt P43405)",100%
"Phosphatidylinositol 4,5-bisphosphate 3-kinase catalytic subunit alpha isoform (PIK3CA, Homo sapiens, UniProt P42336, E545K)",84%

# Block 3
# Target: Ephrin type-A receptor 5 (EPHA5, Homo sapiens, UniProt P54756)
# UniProt P54756, sequence (whole entry, looked up): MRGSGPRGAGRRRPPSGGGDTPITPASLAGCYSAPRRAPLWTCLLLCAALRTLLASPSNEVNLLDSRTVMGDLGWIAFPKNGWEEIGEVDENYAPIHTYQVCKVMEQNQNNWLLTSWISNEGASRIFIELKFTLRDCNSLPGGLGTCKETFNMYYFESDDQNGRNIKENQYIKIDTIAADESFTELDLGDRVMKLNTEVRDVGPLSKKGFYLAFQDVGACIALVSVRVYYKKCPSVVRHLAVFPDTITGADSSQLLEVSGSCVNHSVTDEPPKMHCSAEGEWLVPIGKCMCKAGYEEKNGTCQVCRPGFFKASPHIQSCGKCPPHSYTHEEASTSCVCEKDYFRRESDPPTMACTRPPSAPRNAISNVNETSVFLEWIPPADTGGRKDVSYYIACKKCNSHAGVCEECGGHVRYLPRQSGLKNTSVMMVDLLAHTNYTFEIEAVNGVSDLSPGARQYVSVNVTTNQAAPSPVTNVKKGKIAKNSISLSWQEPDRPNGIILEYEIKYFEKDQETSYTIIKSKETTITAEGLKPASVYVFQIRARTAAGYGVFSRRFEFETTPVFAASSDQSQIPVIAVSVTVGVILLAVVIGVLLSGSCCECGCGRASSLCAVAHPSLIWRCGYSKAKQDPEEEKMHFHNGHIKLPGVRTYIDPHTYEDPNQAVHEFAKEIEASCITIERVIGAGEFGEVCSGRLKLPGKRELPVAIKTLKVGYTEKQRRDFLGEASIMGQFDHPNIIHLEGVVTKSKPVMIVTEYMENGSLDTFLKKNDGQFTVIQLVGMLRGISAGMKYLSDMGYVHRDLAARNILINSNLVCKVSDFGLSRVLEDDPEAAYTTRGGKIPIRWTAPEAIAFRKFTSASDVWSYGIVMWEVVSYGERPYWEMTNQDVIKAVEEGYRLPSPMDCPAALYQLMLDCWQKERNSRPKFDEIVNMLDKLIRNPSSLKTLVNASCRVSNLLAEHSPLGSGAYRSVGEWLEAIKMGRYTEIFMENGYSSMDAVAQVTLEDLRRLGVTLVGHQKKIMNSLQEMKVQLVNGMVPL
# Effect on: enzyme activity
# Action: inhibitor
# Tested at: 0.5 µM
# Reference: control
SMILES,remaining activity
O=C(CCCc1ccc(-c2ccccc2F)cc1)Nc1ccc(O)cc1,99%
Cc1ccc(Nc2nccc(N(C)c3ccc4c(C)n(C)nc4c3)n2)cc1S(N)(=O)=O,99.7%
Cc1ccc(NC(=O)c2ccc(CN3CCN(C)CC3)cc2)cc1Nc1nc(-c2cccnc2)cs1,104%
COc1cc2nccc(Oc3ccc(NC(=S)NC(=O)c4ccccc4C)cc3)c2cc1OC,91%
COc1ccc(CNC(=O)Nc2ncc([N+](=O)[O-])s2)cc1,117%
O=S(=O)(c1cccc2cnccc12)N1CCCNCC1,90.5%
CN(C)c1ccc(C=C2C(=O)Nc3ccccc32)cc1,109%
O=C(O)c1ccc2c3c1cccc3c(=O)n1c3ccccc3nc21,94.2%
CO[C@H]1C[C@@H]2CC[C@@H](C)[C@@](O)(O2)C(=O)C(=O)N2CCCC[C@H]2C(=O)O[C@H]([C@H](C)C[C@@H]2CC[C@@H](O)[C@H](OC)C2)CC(=O)[C@H](C)/C=C(\C)[C@@H](O)[C@@H](OC)C(=O)[C@H](C)C[C@H](C)/C=C/C=C/C=C/1C,94.7%
OCC(O)CCON=C1C(c2c(O)[nH]c3ccccc23)=Nc2ccccc21 (stereo not shown),68%
Cc1cccc(-c2[nH]c(C(C)(C)C)nc2-c2ccc3c(c2)OCO3)n1,95.6%
COc1ccc(C(=O)Nc2sc3c(c2C(N)=O)CCCC3)cc1OC,104%
CNC(=O)c1cc(Oc2ccc(NC(=O)Nc3ccc(Cl)c(C(F)(F)F)c3)cc2)ccn1,99.4%
CCOC(=O)c1c(C)[nH]c(/C=C2\C(=O)Nc3ccccc32)c1C,91.9%

# Mixed results
Structure (SMILES),species,dose,time,quantity,value
CN(N=O)C(=O)N[C@@H]1[C@@H](O)[C@H](O)[C@@H](CO)O[C@@H]1O,"mice, STZ diabetic neuropathy",dose not given,14 days after STZ,blood glucose,499 mg/dL and 458 mg/dL and 450 mg/dL and 582 mg/dL and 466 mg/dL
